Published values from different studies.
Each numbered part is a random draw from the data of one study; scales do not carry over between parts. Positions count from the first letter of the parent shown.
Chain of UniProt P10721 (whole entry, unmodified, looked up): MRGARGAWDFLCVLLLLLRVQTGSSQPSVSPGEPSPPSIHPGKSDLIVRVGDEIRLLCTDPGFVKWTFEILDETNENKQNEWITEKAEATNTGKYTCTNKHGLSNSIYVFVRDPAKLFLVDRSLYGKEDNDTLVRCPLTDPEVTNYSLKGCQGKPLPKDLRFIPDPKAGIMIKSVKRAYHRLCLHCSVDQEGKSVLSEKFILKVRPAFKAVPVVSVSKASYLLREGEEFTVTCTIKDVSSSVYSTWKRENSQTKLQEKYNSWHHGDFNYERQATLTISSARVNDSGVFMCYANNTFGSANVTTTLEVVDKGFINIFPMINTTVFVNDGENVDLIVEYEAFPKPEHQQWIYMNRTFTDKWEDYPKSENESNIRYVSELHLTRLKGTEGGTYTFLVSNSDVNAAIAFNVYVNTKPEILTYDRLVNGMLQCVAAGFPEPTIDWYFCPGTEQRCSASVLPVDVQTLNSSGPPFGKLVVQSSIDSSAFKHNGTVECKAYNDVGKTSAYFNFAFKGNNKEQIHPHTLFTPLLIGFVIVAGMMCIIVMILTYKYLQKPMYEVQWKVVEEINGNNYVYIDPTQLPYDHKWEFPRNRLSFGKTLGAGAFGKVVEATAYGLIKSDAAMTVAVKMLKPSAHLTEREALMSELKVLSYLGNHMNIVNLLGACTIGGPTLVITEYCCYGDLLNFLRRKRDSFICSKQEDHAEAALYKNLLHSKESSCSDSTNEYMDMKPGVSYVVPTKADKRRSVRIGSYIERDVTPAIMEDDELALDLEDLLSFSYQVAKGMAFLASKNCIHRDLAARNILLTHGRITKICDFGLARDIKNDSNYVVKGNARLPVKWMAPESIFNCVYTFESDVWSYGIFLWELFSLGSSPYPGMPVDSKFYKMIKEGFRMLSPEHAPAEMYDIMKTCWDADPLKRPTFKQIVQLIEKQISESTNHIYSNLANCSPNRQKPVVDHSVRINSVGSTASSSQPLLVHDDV
Chain of UniProt O00750 (whole entry, looked up): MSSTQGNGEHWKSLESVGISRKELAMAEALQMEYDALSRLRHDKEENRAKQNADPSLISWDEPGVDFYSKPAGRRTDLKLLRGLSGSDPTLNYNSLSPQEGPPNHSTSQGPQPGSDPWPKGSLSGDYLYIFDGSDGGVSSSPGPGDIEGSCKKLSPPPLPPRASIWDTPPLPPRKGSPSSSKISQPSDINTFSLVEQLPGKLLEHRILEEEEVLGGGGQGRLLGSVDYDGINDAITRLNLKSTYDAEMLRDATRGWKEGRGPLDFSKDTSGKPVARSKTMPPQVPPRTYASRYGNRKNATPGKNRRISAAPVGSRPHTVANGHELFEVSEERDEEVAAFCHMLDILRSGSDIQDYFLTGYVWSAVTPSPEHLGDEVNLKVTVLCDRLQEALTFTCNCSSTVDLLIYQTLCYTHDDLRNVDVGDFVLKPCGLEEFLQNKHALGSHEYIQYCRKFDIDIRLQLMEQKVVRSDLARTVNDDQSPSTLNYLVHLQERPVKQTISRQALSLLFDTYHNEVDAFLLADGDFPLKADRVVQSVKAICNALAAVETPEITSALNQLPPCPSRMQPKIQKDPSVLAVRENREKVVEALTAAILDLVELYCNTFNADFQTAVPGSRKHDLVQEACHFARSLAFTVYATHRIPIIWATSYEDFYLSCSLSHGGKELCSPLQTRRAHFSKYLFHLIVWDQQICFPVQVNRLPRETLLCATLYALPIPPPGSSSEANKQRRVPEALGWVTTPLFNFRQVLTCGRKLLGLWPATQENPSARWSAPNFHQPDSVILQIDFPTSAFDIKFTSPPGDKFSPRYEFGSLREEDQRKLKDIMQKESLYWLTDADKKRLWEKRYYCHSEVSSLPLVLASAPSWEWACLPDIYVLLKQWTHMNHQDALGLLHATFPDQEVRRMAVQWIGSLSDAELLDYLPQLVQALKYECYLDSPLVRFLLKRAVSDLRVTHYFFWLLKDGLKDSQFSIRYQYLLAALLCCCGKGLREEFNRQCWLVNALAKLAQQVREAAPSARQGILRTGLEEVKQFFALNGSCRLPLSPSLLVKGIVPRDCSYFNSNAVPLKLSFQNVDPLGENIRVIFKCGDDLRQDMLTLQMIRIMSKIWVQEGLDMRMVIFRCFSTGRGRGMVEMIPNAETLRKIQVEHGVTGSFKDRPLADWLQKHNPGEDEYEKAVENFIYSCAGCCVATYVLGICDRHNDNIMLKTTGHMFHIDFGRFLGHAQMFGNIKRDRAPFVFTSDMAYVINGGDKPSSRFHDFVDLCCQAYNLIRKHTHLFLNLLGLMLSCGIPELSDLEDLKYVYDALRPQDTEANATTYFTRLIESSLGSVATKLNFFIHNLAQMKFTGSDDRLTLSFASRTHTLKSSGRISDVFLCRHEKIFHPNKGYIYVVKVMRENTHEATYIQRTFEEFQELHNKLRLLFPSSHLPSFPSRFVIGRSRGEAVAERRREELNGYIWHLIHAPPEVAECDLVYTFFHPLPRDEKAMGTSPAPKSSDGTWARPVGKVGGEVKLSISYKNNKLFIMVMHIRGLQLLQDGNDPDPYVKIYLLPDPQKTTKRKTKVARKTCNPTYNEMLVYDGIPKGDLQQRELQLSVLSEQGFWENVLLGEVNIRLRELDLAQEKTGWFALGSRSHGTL
Chain of UniProt O14578 (whole entry, looked up): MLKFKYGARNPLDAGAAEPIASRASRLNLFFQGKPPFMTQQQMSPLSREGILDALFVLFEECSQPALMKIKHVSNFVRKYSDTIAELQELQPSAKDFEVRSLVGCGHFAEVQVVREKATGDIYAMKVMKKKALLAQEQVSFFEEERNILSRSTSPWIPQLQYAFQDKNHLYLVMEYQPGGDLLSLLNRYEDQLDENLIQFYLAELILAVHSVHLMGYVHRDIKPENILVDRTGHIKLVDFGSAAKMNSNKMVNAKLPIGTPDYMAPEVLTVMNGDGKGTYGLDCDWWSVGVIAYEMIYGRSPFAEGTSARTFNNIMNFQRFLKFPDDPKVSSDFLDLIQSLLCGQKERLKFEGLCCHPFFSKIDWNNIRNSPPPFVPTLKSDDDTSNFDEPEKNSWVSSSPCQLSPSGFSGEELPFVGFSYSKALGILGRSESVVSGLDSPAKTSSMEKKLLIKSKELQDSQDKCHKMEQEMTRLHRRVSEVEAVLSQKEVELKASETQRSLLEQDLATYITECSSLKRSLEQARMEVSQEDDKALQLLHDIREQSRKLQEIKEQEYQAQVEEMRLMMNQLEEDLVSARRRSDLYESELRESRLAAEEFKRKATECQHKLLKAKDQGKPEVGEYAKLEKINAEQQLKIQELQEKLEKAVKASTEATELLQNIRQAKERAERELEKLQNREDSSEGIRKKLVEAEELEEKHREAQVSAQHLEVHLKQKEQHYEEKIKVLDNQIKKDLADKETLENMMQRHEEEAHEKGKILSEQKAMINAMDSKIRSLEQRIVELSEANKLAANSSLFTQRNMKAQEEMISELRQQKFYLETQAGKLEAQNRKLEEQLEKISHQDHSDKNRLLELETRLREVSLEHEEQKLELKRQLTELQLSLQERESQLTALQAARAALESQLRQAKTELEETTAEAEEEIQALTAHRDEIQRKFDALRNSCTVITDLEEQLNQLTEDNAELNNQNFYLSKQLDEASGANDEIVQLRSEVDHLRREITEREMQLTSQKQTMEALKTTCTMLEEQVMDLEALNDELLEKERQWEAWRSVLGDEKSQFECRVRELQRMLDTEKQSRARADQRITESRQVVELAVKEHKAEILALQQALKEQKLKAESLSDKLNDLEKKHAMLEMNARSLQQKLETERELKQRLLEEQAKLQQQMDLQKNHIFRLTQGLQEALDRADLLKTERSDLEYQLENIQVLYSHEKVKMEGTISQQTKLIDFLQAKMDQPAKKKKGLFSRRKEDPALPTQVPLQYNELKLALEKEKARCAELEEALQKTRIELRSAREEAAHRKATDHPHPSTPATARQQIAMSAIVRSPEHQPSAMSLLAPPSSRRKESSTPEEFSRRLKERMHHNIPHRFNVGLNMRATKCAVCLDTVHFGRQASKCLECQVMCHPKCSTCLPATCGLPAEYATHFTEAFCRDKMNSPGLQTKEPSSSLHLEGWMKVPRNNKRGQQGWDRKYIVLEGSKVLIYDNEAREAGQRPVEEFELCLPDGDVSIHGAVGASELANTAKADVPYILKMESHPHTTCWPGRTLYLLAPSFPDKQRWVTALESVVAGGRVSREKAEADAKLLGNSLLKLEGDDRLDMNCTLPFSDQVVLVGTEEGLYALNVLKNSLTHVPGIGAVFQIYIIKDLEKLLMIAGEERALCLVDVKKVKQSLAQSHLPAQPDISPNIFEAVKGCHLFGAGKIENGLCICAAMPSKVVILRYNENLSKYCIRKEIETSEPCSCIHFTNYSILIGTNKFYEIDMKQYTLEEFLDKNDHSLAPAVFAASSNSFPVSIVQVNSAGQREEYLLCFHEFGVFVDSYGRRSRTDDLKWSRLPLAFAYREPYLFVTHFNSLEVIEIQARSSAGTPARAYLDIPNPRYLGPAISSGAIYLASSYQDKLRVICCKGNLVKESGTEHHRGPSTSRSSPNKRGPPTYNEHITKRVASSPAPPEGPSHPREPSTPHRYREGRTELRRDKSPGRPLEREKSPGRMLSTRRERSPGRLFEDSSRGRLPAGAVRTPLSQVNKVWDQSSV

Sample 1
Compound: CN([C@@H]1CCc2c(CC(=O)O)c3cc(S(C)(=O)=O)ccc3n2C1)S(=O)(=O)c1ccc(F)cc1
Observed: cell-free assay
Method: competition with immobilised ligand
Tested at: 1 µM
target | remaining binding [%]
MET (Homo sapiens, UniProt P08581) | 100
KIT (Homo sapiens, UniProt P10721, A829P) | 100
Ribosomal protein S6 kinase alpha-4, C-terminal kinase domain (RPS6KA4, Homo sapiens, UniProt O75676) | 97
PKN1 (Homo sapiens, UniProt Q16512) | 90
KIT (Homo sapiens, UniProt P10721, T670I/V559D) | 100
MAP2K7 (Homo sapiens, UniProt O14733) | 100
MAP3K11 (Homo sapiens, UniProt Q16584) | 100
CIT (Homo sapiens, UniProt O14578) | 96
BMX (Homo sapiens, UniProt P51813) | 100
SBK3 (Homo sapiens, UniProt P0C264) | 49
PIK3C2B (Homo sapiens, UniProt O00750) | 100
Tyrosine-protein kinase ABL1, phosphorylated (ABL1, Homo sapiens, UniProt P00519, M351T) | 86
CDKL5 (Homo sapiens, UniProt O76039) | 93
CSNK1A1 (Homo sapiens, UniProt P48729) | 100
AKT1 (Homo sapiens, UniProt P31749) | 100
BRSK1 (Homo sapiens, UniProt Q8TDC3) | 94
RIPK1 (Homo sapiens, UniProt Q13546) | 93

Sample 2
Organism: Sarcocystis neurona
Observed: parasite growth
Tested at: 10 µM
Setting: secondary screen
Structure (SMILES) | inhibition
C[C@H]1C[C@H]2[C@@H]3CCC4=CC(=O)C=C[C@]4(C)[C@@]3(Cl)[C@@H](O)C[C@]2(C)[C@@]1(O)C(=O)CO | -0.6%
O=C1[C@H](CC[C@H](O)c2ccc(F)cc2)[C@@H](c2ccc(O)cc2)N1c1ccc(F)cc1 | 12.2%
CN1C(=O)CC[C@H]1c1cccnc1 | -38.5%

Sample 3
Target: CCNA1, cyclin fold, Cln2 fusion (human)
Method: yeast growth competition, sequencing
Matrix: yeast
Setting: weak parent motif
Relative to: not given
Reading: higher = stronger binding
Starting sequence: DBF4 docking peptide (human); DDIVSKLVFDFVE; partner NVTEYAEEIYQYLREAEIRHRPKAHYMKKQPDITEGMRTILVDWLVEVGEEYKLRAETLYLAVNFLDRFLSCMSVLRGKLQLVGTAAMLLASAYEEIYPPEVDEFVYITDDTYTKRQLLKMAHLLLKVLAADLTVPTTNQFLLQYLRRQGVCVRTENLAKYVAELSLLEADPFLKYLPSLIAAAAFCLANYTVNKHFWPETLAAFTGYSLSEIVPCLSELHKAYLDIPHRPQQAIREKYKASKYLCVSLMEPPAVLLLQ
Variant | normalised enrichment score
DDIVSALVFDFVE [K6A] | -0.276
DAIVSKLVFDFVE [D2A] | -0.245
ADIVSKLVFDFVE [D1A] | -0.482
DDIVAKLVFDFVE [S5A] | -0.443
DDAVSKLVFDFVE [I3A] | -0.295
DDIVSKLVADFVE [F9A] | 0.0812
DDIVSKLVFAFVE [D10A] | -0.601

Sample 4
Target: Centromere-binding protein 1, full length, His-tagged (CBF1, Saccharomyces cerevisiae, UniProt P17106, residues 1-351)
Chain of UniProt P17106 (whole entry, looked up): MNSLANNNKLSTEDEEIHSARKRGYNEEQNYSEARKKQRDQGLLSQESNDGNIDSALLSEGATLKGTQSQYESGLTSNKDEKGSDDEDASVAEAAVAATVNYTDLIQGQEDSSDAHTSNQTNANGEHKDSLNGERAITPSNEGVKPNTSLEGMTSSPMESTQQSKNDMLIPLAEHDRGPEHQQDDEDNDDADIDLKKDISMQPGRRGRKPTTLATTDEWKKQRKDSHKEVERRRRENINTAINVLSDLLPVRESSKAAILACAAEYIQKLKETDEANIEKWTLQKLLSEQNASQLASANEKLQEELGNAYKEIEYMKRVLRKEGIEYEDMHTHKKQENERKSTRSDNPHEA
Method: competition protein-binding microarray
Molecule type: double-stranded DNA, one strand shown
Matrix: in vitro
Tested at: 2 µM
Setting: whole 60-bp probe, lowest competitor level
Added: Pho4 competitor, 0.05 µM
Reading: higher = stronger binding
All sequences stand within: … GTCTTGATTCGCTTGACGCTGCTG
Sequence | fluorescence intensity
GGAGCGTATTGTAACCAGATTTCCTTGGGCCAGAAG | 59.5 a.u.
CATACCCAACCTTTTCACGTGTGATAAGATATTTGT | 716 a.u.
TTTTCAAAAATATTGCACGGGCTTTCTGTATATTGA | 110 a.u.
CGGGGTTAAGTTTGGCAGGTGGGTGGCTTGCAGCAG | 71.5 a.u.
CGTCCTAGTGATTGGCAGGTGGGTGCCATGAGGAAG | 77.9 a.u.
TGGATTAGTACTGTAGGCGTGCAAACTTTGTTCGCA | 92.6 a.u.
CTAAATCCGCTTCTGCTCGTGGTGAGTACTTGCGCG | 56.8 a.u.
CCATTTGGATATAAGCTTGTGACAGTGACAGTAGAG | 96.3 a.u.

Further values, each from its own experiment
SMILES | cell line | test | setting | scale | endpoint | result
CN(C)CCCCSC(=N)N | mouse MPNST tumor cells | high-content nuclear imaging, refers to: cell number | 10 µM, 12 h, mean of 2 replicates | relative to: plate mean, higher = more cells | nuclei count | 0.743 z-score
CC(=O)Oc1c(C)c(C)c2c(c1C)CCC(C)(CCC[C@H](C)CCC[C@H](C)CCCC(C)C)O2 (some centres unmarked) | A-375 | – | 100 µM, 36 h | – | viability | 108%
Nc1ncnc2c1cnn2-c1ccccc1 | mouse MPNST tumor cells | high-content nuclear imaging, refers to: cell number | 10 µM, 12 h, mean of 2 replicates | relative to: plate mean, higher = more cells | nuclei count | 0.0345 z-score
